Published values collected from several papers.
Numbered parts are unrelated; each lists some results of a single study. Values joined by “and” are separate records of one study, mostly repeats; a detail may differ.
UniProt P09619, sequence (whole entry, looked up): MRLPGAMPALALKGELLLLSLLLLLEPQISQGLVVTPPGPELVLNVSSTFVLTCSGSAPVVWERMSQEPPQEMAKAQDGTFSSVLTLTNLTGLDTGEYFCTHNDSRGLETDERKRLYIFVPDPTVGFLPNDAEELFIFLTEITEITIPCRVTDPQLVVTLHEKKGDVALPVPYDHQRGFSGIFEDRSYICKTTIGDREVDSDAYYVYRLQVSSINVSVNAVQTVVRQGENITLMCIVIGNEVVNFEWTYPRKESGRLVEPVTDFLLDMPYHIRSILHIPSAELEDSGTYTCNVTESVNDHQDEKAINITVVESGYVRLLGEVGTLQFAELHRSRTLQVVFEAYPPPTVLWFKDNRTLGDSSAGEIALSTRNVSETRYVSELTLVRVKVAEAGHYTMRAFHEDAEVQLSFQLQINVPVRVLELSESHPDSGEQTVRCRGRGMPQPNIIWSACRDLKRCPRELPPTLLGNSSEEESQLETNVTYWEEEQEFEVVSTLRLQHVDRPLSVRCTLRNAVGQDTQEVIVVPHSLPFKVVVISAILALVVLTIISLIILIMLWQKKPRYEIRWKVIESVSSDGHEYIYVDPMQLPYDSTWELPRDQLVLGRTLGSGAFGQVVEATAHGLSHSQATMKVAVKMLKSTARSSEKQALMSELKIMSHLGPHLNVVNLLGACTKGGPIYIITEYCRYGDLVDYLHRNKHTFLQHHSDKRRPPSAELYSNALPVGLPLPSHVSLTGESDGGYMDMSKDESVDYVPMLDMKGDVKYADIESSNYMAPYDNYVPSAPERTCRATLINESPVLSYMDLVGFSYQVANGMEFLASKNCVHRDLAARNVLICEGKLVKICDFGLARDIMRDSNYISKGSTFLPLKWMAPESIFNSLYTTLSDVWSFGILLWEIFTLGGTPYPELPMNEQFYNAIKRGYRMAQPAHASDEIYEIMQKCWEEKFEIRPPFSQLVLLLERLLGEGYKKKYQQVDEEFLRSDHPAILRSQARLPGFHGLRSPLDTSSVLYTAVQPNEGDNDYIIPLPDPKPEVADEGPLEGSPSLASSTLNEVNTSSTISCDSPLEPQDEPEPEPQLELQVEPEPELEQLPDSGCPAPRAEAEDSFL
UniProt P54753, sequence (whole entry, looked up): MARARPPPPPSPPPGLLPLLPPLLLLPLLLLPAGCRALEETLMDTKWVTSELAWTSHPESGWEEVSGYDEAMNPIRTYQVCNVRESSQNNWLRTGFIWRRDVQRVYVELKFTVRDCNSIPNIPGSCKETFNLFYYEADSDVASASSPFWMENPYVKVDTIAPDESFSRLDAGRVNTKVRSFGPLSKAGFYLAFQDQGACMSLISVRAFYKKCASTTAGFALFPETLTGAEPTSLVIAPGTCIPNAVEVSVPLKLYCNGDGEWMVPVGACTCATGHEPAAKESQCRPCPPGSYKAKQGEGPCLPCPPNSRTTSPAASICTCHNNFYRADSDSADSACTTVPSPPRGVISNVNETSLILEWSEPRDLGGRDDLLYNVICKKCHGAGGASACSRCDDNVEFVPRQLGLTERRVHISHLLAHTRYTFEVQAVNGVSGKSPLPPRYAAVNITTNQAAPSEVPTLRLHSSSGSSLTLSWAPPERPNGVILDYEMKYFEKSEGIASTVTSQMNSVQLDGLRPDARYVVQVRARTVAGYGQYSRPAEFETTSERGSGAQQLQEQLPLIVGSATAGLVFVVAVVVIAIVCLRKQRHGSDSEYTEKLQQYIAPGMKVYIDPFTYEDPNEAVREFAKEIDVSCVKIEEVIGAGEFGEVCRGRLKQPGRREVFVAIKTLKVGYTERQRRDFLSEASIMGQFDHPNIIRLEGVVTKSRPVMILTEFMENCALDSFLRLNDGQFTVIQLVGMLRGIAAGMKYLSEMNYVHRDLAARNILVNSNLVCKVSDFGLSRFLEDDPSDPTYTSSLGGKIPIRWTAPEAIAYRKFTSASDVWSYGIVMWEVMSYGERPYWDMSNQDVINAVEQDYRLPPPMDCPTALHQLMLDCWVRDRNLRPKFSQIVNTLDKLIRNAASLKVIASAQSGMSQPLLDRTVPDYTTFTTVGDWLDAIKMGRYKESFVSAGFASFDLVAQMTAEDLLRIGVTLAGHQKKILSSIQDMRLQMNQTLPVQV
UniProt Q6DT37, sequence (whole entry, looked up): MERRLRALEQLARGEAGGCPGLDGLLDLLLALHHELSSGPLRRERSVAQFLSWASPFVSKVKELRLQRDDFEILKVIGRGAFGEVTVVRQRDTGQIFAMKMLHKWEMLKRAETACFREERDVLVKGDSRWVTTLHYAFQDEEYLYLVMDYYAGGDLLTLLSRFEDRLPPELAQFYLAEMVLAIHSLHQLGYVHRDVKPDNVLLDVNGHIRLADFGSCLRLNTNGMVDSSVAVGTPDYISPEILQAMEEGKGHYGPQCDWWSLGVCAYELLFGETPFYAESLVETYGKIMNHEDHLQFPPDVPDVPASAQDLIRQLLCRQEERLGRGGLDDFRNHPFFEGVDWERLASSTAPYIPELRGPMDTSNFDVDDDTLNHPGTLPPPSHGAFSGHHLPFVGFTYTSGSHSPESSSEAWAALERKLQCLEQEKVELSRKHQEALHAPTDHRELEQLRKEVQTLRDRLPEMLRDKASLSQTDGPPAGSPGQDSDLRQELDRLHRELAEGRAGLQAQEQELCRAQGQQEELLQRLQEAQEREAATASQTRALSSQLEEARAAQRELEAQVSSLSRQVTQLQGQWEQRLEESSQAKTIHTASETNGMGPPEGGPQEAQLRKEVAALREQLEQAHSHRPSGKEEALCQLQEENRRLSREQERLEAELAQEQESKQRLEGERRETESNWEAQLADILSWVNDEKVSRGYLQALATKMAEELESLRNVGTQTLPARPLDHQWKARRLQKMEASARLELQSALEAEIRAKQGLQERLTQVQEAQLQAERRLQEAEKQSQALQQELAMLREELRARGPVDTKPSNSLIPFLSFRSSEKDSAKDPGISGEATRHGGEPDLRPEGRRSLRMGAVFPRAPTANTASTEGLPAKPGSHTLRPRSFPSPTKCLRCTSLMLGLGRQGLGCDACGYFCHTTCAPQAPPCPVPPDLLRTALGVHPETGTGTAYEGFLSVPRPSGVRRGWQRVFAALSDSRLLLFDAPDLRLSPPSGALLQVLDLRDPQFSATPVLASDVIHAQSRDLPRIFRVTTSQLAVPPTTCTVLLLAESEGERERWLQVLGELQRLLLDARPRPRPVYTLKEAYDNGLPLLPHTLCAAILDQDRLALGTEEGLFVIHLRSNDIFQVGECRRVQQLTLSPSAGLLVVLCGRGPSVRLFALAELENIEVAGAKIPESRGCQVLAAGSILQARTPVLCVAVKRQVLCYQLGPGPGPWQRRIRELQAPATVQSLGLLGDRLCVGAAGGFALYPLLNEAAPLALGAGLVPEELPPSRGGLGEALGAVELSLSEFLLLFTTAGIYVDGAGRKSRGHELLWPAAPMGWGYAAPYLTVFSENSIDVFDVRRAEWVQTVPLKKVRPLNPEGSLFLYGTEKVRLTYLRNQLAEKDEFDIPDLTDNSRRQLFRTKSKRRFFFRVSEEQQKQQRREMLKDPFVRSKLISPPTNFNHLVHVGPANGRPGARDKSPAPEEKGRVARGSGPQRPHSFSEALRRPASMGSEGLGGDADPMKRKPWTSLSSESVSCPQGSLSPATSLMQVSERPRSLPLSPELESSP
UniProt P49137, sequence (whole entry, looked up): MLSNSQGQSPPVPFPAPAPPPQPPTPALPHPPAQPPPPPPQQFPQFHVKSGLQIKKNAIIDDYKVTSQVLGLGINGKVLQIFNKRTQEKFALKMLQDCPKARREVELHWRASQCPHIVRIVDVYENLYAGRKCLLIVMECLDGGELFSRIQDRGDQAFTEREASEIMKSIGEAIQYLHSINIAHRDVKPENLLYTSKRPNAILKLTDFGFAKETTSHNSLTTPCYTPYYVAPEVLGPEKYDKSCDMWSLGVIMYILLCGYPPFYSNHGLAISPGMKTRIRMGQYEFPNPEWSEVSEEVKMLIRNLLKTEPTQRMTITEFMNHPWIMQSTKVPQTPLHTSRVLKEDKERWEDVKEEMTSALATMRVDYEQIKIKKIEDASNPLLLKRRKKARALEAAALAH

Series 1 — effect on: cell viability; method: CellCounting-Lite; temperature: 37 °C; reading: higher = more viable cells
Structure (SMILES): CCn1cnc2c(NCc3nc4cc(Cl)c(Cl)cc4[nH]3)nc(N3CCN(C(C)=O)CC3)nc21
cell line | tested at | luminescence signal
MDA-MB-468 | 2.743 nM | 334000 a.u. and 350000 a.u. and 333000 a.u.
MDA-MB-468 | 24.69 nM | 76100 a.u. and 79500 a.u. and 75000 a.u.
MDA-MB-231 | 74.07 nM | 65800 a.u. and 73900 a.u. and 66300 a.u.
MDA-MB-468 | 222.2 nM | 36800 a.u. and 33100 a.u.
MDA-MB-231 | 8.23 nM | 399000 a.u. and 388000 a.u. and 437000 a.u.
MDA-MB-231 | 0.9145 nM | 426000 a.u. and 445000 a.u. and 468000 a.u.

Series 2 — tested at: 1 µM
SMILES: CC[C@@]1(c2cccc(C(F)(F)F)c2)C2=C(Nc3n[nH]cc31)[C@H](F)C(C)(C)CC2=O (single isomer, unassigned)
target | effect on | method | baseline | remaining binding [%]
EPHB3 (Homo sapiens, UniProt P54753) | binding | competition with immobilised ligand |  | 100
MAP3K5 (Homo sapiens, UniProt Q99683) | kinase binding | KINOMEscan | DMSO control | 100
CDC42BPG (Homo sapiens, UniProt Q6DT37) |  | KINOMEscan |  | 99
MAP3K11 (Homo sapiens, UniProt Q16584) | binding | competition with immobilised ligand |  | 100
CSF1R (Homo sapiens, UniProt P07333) | binding | competition with immobilised ligand |  | 100
PDGFRB (Homo sapiens, UniProt P09619) | binding | competition with immobilised ligand |  | 100
KIT (Homo sapiens, UniProt P10721) | kinase binding | KINOMEscan | DMSO control | 100
MAPKAPK2 (Homo sapiens, UniProt P49137) | kinase binding | KINOMEscan | DMSO control | 91

Series 3 — method: FLIPR membrane potential; cell line: CHO-BC; tested at: 30 µM; notes: unit not given; baseline: uninhibited
Target: Sodium-dependent neutral amino acid transporter B(0)AT1 (SLC6A19, Homo sapiens, UniProt Q695T7)
UniProt Q695T7, sequence (whole entry, looked up): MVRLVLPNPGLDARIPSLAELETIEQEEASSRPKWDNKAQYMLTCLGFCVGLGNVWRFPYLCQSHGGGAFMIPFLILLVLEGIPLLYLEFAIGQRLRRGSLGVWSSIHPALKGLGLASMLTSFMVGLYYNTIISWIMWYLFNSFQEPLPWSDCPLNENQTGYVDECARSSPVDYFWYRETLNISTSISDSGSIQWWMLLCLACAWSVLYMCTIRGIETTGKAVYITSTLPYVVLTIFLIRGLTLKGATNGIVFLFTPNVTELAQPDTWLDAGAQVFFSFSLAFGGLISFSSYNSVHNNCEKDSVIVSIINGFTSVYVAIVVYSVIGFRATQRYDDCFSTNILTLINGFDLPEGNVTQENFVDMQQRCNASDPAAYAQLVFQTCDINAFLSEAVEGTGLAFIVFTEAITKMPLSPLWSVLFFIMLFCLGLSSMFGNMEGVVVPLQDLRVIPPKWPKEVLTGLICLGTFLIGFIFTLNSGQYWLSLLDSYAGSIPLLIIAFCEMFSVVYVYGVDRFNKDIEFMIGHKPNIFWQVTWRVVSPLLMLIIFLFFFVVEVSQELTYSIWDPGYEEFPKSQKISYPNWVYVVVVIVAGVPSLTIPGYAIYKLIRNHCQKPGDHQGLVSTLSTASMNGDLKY
Compound | remaining activity
CCNC(=O)COc1cc(C)c(Cl)c(C)c1 | 0.539 and 0.5 and 0.56 and 0.483 and 0.465
Cc1cc(OCC(=O)NC(C)C)cc(C)c1I | 0.247 and 0.211 and 0.174 and 0.126 and 0.151
Cc1cc(OCC(=O)NC(C)C)cc(C)c1Br | 0.297 and 0.293 and 0.19 and 0.161 and 0.248

Single results of other studies
SMILES | target or system | test | test system | setting | measurement | value
Cn1cc(-c2cccc(CN3CCC4(CC3)COc3c4ccc4c3CN([C@H]3CCC(=O)NC3=O)C4=O)c2)cn1 |  |  | Crbn I391V mouse, MC-38 tumour | oral, daily, 30 mg/kg, animals reaching endpoint, together with: isotype control antibody i.p. | time to tumour volume 2000 mm3 | 22 days and 15 days and 25 days and 39 days and 33 days and 36 days and 49 days and 19 days
C#CCN1C(=O)C(O)(C(=O)O)Oc2cc(F)ccc21 (stereo not shown) | Arabidopsis thaliana | root length | Col-0 | 3.13 µg/mL, 7 days, seed germination, dark | inhibition | 12.5%

Excerpt of the above (series 2):
target | effect on | method | baseline | remaining binding [%]
CSF1R (Homo sapiens, UniProt P07333) | binding | competition with immobilised ligand |  | 100
EPHB3 (Homo sapiens, UniProt P54753) | binding | competition with immobilised ligand |  | 100
